Results of several laboratories.
Each line is one published result; not all experiments were run side by side. Numbers after ± are the reported error.

CC(=O)[CH](C(C)=O)[Pt-2]1([S+](C)C)[O]C(C)=CC(C)=[O+]1 (stereo not drawn) — cumulative Pt excretion (atomic absorption spectroscopy; rat, urine and feces; intravenous, dose not given, 24 h; baseline: dose): 4 ± 1.6%
Cc1[nH]c(/C=C2\C(=O)Nc3ccc(F)cc32)c(C)c1NC(=O)CCN1CCN(C)CC1 — measured concentration (dog plasma; 1.00 ng/mL nominal, 24 h, 25 °C, processed samples at room temperature): 1 ng/mL
CC(C)C[C@@H]1NC(=O)[C@@H]2CCCN2C(=O)[C@H](CO)NC(=O)[C@@H](NC(=O)[C@H](Cc2c[nH]cn2)NC(=O)[C@H](CO)NC(=O)[C@H](Cc2ccc(O)cc2)NC(=O)[C@H](CC(=O)O)NC(=O)CNC(=O)CN2CCN(CC(=O)O)CCN(CC(=O)O)CCN(CC(=O)O)CC2)CSSC[C@@H](C(=O)N[C@H](C(=O)N[C@@H](Cc2ccc(O)cc2)C(=O)N2CCC[C@H]2C(=O)N[C@@H](CC(=O)O)C(=O)N2CCC[C@H]2C(=O)N[C@@H](CCC(=O)O)C(=O)NCC(=O)NCC(=O)NCC(N)=O)[C@@H](C)O)NC(=O)[C@H](CCCCN)NC(=O)[C@H](Cc2c[nH]c3ccccc23)NC(=O)[C@H](Cc2c[nH]c3ccccc23)NC(=O)[C@@H]2CCCN2C(=O)[C@H](Cc2ccc(O)cc2)NC(=O)[C@H](Cc2ccc(O)cc2)NC(=O)[C@H](CCCNC(=N)N)NC1=O [gallium-68 labelled] — SUVmax (PET/CT; male NOD-SCID mice, heart; intravenous, 3.7 MBq, 15 min): 1.15 ± 0.08 SUV
CCCCCCCCCCCCCCCC(=O)N[C@@H](CCC(=O)NCCCC[C@H](NC(=O)[C@H](C)NC(=O)[C@H](C)NC(=O)[C@H](CCC(N)=O)NC(=O)CNC(=O)[C@H](CCC(=O)O)NC(=O)[C@H](CC(C)C)NC(=O)[C@H](Cc1ccc(O)cc1)NC(=O)[C@H](CO)NC(=O)[C@H](CO)NC(=O)[C@@H](NC(=O)[C@H](CC(=O)O)NC(=O)[C@H](CO)NC(=O)[C@@H](NC(=O)[C@H](Cc1ccccc1)NC(=O)[C@@H](NC(=O)CNC(=O)[C@H](CCC(=O)O)NC(=O)[C@H](C)NC(=O)[C@@H](N)Cc1cnc[nH]1)[C@@H](C)O)[C@@H](C)O)C(C)C)C(=O)N[C@@H](CCC(=O)O)C(=O)N[C@@H](Cc1ccccc1)C(=O)N[C@H](C(=O)N[C@@H](C)C(=O)N[C@@H](Cc1c[nH]c2ccccc12)C(=O)N[C@@H](CC(C)C)C(=O)N[C@H](C(=O)N[C@@H](CCCNC(=N)N)C(=O)NCC(=O)N[C@@H](CCCNC(=N)N)C(=O)NCC(=O)O)C(C)C)[C@@H](C)CC)C(=O)O — metabolised fraction (simulated intestinal fluid with pancreatin; 2 h, pH 6): 95.5%
CC(C)C[C@@H](N)C(=O)N[C@H](CC(=O)O)C(=O)N[C@@H](C(=O)N[C@H](Cc1ccccc1)C(=O)N[C@H](CC(C)C)C(=O)N[C@H](Cc1ccc(O)cc1)C(=O)N[C@H](CO)C(=O)N[C@H](CCC(=O)O)C(=O)O)C(C)C — AST level (4T1 and MC-38 tumour mice; dose not given): no effect
COC(=O)C(c1ccccc1Cl)N1CCC(SCC(=O)c2cccc(OC)c2)C(=CC(=O)O)C1 (stereo not drawn) — measured concentration (LC-MS/MS; processed plasma extract; 2 ng/mL, 8 h, room temperature): 2 ± 0.2 ng/mL
COc1ccc([C@@H]2CC(=O)c3c(O)cc(O[C@@H]4O[C@H](CO[C@@H]5O[C@@H](C)[C@H](O)[C@@H](O)[C@H]5O)[C@@H](O)[C@H](O)[C@H]4O)cc3O2)cc1O — measured concentration (rat plasma; 0.48 ng/mL, three freeze-thaw cycles): 0.44 ± 0.02 ng/mL
Cc1[nH]nc2c1N=C(c1ccccc1Cl)c1cnc(N3CCOCC3)cc1N2 — apparent clearance (CL/F) (refers to: total radioactivity; human male, plasma; oral, 10 mg): 4.08 L/h
COc1cc(OC)cc(C2=C3C(C)=C(I)C(C)=[N+]3[B-](F)(F)n3c(/C=C/c4c[nH]c5ccccc45)c(I)c(C)c32)c1 — Stokes shift (THF): 979 cm⁻¹
OCc1cn(Cc2ccc(-c3noc(-c4ccc(OCC[18F])c(C(F)(F)F)c4)n3)cc2)nn1 — tissue uptake (female Lewis rat, kidney; intravenous, 30 min): 2.11 ± 0.08 %ID/g
CCCC[C@H](NC(=O)[C@H](CC(C)C)N(C)C(=O)CNC(=O)[C@@H](NC(=O)[C@H](Cc1ccccc1)NC(=O)[C@H](CCCCN)NC(=O)[C@@H](N)CC(=O)O)C(C)C)C(N)=O — heart rate change (anaesthetised Sinclair minipigs; SC, 30 µg/kg; baseline: baseline): -5.21 ± 3.22%
CCCC[C@H](NC(C)=O)C(=O)N[C@H]1CC(=O)NCCCC[C@@H](C(=O)N[C@@H](C(=O)N2CCC[C@@H]2C(N)=O)C(C)C)NC(=O)[C@H](Cc2c[nH]c3ccccc23)NC(=O)[C@H](CCCN=C(N)N)NC(=O)[C@@H](Cc2ccc3ccccc3c2)NC(=O)[C@@H]2CCCN2C1=O — Cmax (dogs, plasma; subcutaneous, 0.75 mg/kg once daily, day 5): 2600 ± 400 ng/mL
CCCCCCCC(=O)OC[C@H](NC(=O)[C@H](CO)NC(=O)CN)C(=O)N[C@@H](Cc1ccccc1)C(=O)N[C@@H](CC(C)C)C(=O)N[C@@H](CO)C(=O)N1CCC[C@H]1C(=O)N[C@@H](CCC(=O)O)C(=O)N[C@@H](Cc1cnc[nH]1)C(=O)N[C@@H](CCC(N)=O)C(=O)N[C@@H](CCCNC(=N)N)C(=O)N[C@H](C(=O)N[C@@H](CCC(N)=O)C(=O)N[C@@H](CCC(N)=O)C(=O)N[C@@H](CCCNC(=N)N)C(=O)N[C@@H](CCCCN)C(=O)N[C@@H](CCC(=O)O)C(=O)N[C@@H](CO)C(=O)N[C@@H](CCCCN)C(=O)N[C@@H](CCCCN)C(=O)N1CCC[C@H]1C(=O)N1CCC[C@H]1C(=O)N[C@@H](C)C(=O)N[C@@H](CCCCN)C(=O)N[C@@H](CC(C)C)C(=O)N[C@@H](CCC(N)=O)C(=O)N1CCC[C@H]1C(=O)N[C@@H](CCCNC(=N)N)C(=O)O)C(C)C — hunger score (patients with chronic HFrEF; iv infusion, 0.1 µg/kg/min, 60 min into infusion, scale 1-10, median; direction not given): 5
O=C([O-])CN1CCN(CC(=O)[O-])CCN(CC(=O)NCC2CCC(C(=O)NC(Cc3ccc4ccccc4c3)C(=O)NCCCCC(NC(=O)NC(CCC(=O)O)C(=O)O)C(=O)O)CC2)CCN(CC(=O)[O-])CC1.[44Sc+3] (stereo not drawn) — residence time (PET/CT dosimetry, OLINDA/EXM; human, kidneys): 0.341 h
CCOc1ccc2c(c1)C(C)=CC(C)(C)N2c1cc(OCC)cc2c1NC(C)(C)C=C2C — residue concentration (LC-MS/MS; cattle, Holstein, kidney; oral, 50 mg/kg complete feed of ethoxyquin, 42 days, highest value): 10.7 ng/g
C[C@H]1CO[C@@H]2Cn3cc(C(=O)NCc4ccc(F)cc4F)c(=O)c(O[C@@H]4O[C@H](C(=O)O)[C@@H](O)[C@H](O)[C@H]4O)c3C(=O)N12 — participants with detectable plasma drug (humans UGT1A1 wild type; intramuscular, dose not given, 1 weeks post-injection): 100%
COC(=O)c1ccc(-c2cn(Cc3cc(Cl)ccc3O[11CH3])nn2)cc1 — distribution volume (PET, Logan plot, t*=40 min; rhesus monkey, brain Putamen; dose not given): 0.574 mL/cm³
CCNC(=O)N1CCC(Oc2nc3c(c(=O)n(C)c(=O)n3C)n2Cc2cccc(C)c2)CC1 — half-life (metabolic stability; rat, liver microsomes): 3 min
C#CCOc1ccc(/C=C2\SC(=O)N(CC(=O)NCc3ccccc3)C2=O)cc1 — correlation volume (inverse Kirkwood-Buff integrals; binary solvent mixture; concentration not given, 298.15 K, mole fraction x1 0.50): 4010 cm³/mol
COc1cc(C)c(-c2ccc(O)c3c2C[C@@H](C)N[C@@H]3C)c2cccc(O)c12 (single isomer, unassigned) — compound remaining (metabolic stability; male rat, liver microsomes; 1 µM, 30 min): 36%
O=C(c1cccc(N=Nc2ccc(OC3CC(N4CCCCC4)C3)cc2)c1)N1CCCC1 (stereo not drawn) — photoisomerization half-life (Tris-HCl buffer, 1% DMSO-d6; 25 µM, pH 7.4, illumination 360 ± 20 nm): 0.0667 ± 0.00333 min
COc1cc(N(C)CCN(C)C)c(NC(=O)CCSCC(N)C(=O)O)cc1Nc1nccc(-c2cn(C3CC3)c3ccccc23)n1 (stereo not drawn) — share of radioactivity (radio-HPLC, co-eluting peaks pooled; human, feces; dose not given, 0 to 240 h, sample holds 81.99% dose; baseline: sample radioactivity): 2.3%
C=CC(=C)CC[C@]1(C)[C@H](C)C[C@H](OC(=O)CCCCCCC)[C@@]23C(=C[C@H](OC(C)=O)C[C@@H]12)[C@@H](OC(C)=O)O[C@H]3OC(C)=O — haemolysis (haemolysis; 500 µM): 12.3%
[64Cu+2].c1cnc(CNCc2ccc(CN3CCCN4CCNCCCN(CC4)CC3)cc2)nc1 — tissue uptake (CXCR4; NOD/SCID mouse, U87 and U87-stb-CXCR4 xenografts, pancreas; iv, 60 min, ex vivo): 1.61 ± 0.19 %ID/g
O=C(O)[C@@H]1C[C@@H](O)CN1C(=O)[C@@H]1CCCN1 — pKa3 (potentiometric titration; water; 40 °C, 0.15 mol/dm3 NaCl): 10.4
COc1cc(-c2nc3ccccc3s2)cc(CN2CCN(CC(=O)OC(C)C)CCN(CC(=O)OC(C)C)CC2)c1O — pKa4 (UV-Vis pH titration; 25 °C, ionic strength 0.1 M NaCl): 12
COCCOCCOCCOCCOCCOCCOCCOCCC(=O)NCCCc1cc2cc3nc(cc4[nH]c(cc5nc(c(OC)c1[nH]2)C(=O)C5(C)C)cc4CCc1ccc(C(=O)O)cc1)CC3(C)C — internal conversion yield (DMF; room temperature): 0.31
Oc1cc2nc(c1)CNCCCNCCCNCCCNCCCNCCCNC2 — log K (potentiometric titration; 0.15 M NaClO4; 298.1 K, H5L5+ + H+ to H6L6+): 5.09
CC(C)[C@H](NC(=O)CNC(=O)[C@H](CCC(N)=O)NC(=O)[C@H](C)N)C(=O)O — clearance (human; across phase I studies): ≥ 217 mL/min/kg
CN1C(=O)c2cccc3c2C1=Cc1ccccc1N3Cc1cccc(NC2CCN([11CH3])CC2)c1 — SUVmax (PET/CT; C57BL/6 mice, male, brain; intravenous, dose not given, baseline): 0.07
N[C@@H]1CCCC[C@H]1N.O=C1[O][Pt]2([O]C1=O)[O]C(=O)C(=O)[O]2 — decomposition (PBS; 24 h, pH 6.0, 37 °C): 38%
C[N+]1(CC(=O)OC2CCCCCCCCCCC2)CCCCC1 — half-life (mouse, plasma; intraperitoneal, 2.5 mg/kg, single dose): 72 min
CC(C)c1cnc(-c2cc(Cl)ccc2F)cc1Nc1ccncc1C(=O)NC(CO)CO — patients with related SAE (refers to: any event, worst grade; human patients; oral, dose not given, grade 4): 0%
Cn1c(=O)oc2ccc(-c3ccc(CC(C#N)NC(=O)C4CNCCCO4)c(F)c3)cc21 (stereo not drawn) — AUC(0-t) (human, plasma; 40 mg once daily, day 28, geometric mean): 8160 ng·h/mL
[11CH3]c1ccc2nc(C3CCC3)n(-c3ccc4[nH]ncc4c3)c2n1 — absorbed radiation dose (human female, kidneys): 6.3 µSv/MBq
C[N+](C)(C)CC(CC(=O)[O-])OC(=O)CCC(=O)Nc1ccn([C@@H]2O[C@H](CO)[C@@H](O)C2(F)F)c(=O)n1 (stereo partly drawn) — measured concentration (THU-treated rat plasma; 15.00 ng/mL, -80 to 20 °C, three freeze-thaw cycles, low QC): 15.2 ± 1.6 ng/mL

For quick reference, copied from above:
COc1cc(C)c(-c2ccc(O)c3c2C[C@@H](C)N[C@@H]3C)c2cccc(O)c12 (single isomer, unassigned) — compound remaining (metabolic stability; male rat, liver microsomes; 1 µM, 30 min): 36%
COc1cc(-c2nc3ccccc3s2)cc(CN2CCN(CC(=O)OC(C)C)CCN(CC(=O)OC(C)C)CC2)c1O — pKa4 (UV-Vis pH titration; 25 °C, ionic strength 0.1 M NaCl): 12
CC(=O)[CH](C(C)=O)[Pt-2]1([S+](C)C)[O]C(C)=CC(C)=[O+]1 (stereo not drawn) — cumulative Pt excretion (atomic absorption spectroscopy; rat, urine and feces; intravenous, dose not given, 24 h; baseline: dose): 4 ± 1.6%
CC(C)C[C@@H](N)C(=O)N[C@H](CC(=O)O)C(=O)N[C@@H](C(=O)N[C@H](Cc1ccccc1)C(=O)N[C@H](CC(C)C)C(=O)N[C@H](Cc1ccc(O)cc1)C(=O)N[C@H](CO)C(=O)N[C@H](CCC(=O)O)C(=O)O)C(C)C — AST level (4T1 and MC-38 tumour mice; dose not given): no effect
COC(=O)c1ccc(-c2cn(Cc3cc(Cl)ccc3O[11CH3])nn2)cc1 — distribution volume (PET, Logan plot, t*=40 min; rhesus monkey, brain Putamen; dose not given): 0.574 mL/cm³
